Experimental data of several laboratories.
A part holds a random share of what one study measured. Substitutions count along the parent as printed.

Sample 1
Target: RNA binding protein fox-1 homolog 2, RRM domain, GST-SBP tag (RBFOX2, Homo sapiens, UniProt O43251-10, residues 100-194)
Method: RNA Bind-n-Seq
Form: RNA
Sample: in vitro
Tested at: 365 nM
Notes: natural RNA segment, single round, ends assumed
Relative to: no-protein control
Reading: higher = stronger binding
Target sequence (chain): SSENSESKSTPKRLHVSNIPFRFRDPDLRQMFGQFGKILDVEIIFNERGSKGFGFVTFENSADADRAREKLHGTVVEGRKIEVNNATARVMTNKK
Strand | RBNS enrichment (R)
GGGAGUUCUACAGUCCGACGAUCCCCUGCCCUCAUACAAGAUUUUUCUCAGCCUUCAGCCUACCACUGCAGAAUCCGAUGUGACCCACCAUUAGGGAGUCUGCAUCUUGGAAGAGUUGGAAAUAACCCUUUAAUGGAAUUCUCGGGUGCCAA | 0.746
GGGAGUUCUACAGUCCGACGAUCCUUUCCCACAUUUUCCUGUUUUCUUCUGAGCCCUCCAAACUGUUCCAGCCUCUGCCUGUUACCCAGUUCCAAAGUCACUUCCACAUUUUGGGUAUUUCUUCAGCAGGUCCUGGAAUUCUCGGGUGCCAA | 0.915
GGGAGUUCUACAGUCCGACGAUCUUGGGAAUCCUAUGUGUAUUUAGUUCUGACUAGUCGUUUGAGGUCUCGGUGGCAGAGCCUGGCUAGUGACUACCAUGUUGGUCAGUGCAGCCUGCUAUCACUCCUUCAAGUGGAAUUCUCGGGUGCCAA | 0.241
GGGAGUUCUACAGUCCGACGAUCGCUGCUUCCACCAUCACACUGGGGUUUCUGGAUGGGAAAUAAAAAAAUAAAGGCAGUUCAUUUCCCCCUGUGGCUCUCUCUUCCGUUGGUGGUGGGGGUGGGGCCGGUGUUGGAAUUCUCGGGUGCCAA | 0.497
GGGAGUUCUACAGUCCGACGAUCGCAAAGUGAGACUGACACCUCACUGAGGAAGGGAGACAUAUUCUUGGAGAACUUUCCAUCUGCUUGUAUUUUCCAUACACAUCCCCAGCCAGAAGUUAGUGUCCGAAGACUGGAAUUCUCGGGUGCCAA | 0.863
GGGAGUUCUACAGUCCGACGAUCUGGUCACUCCUUCGGUGAGACCUCACUGUUCCUGGCUCUUCAUCCUCUUCAAAAAAUUUGCAUGUCUGCUGUGAAUUUUCAUCUAGUUCCCCAAUCGAUGCUCUCAGGGUUGGAAUUCUCGGGUGCCAA | 1.39
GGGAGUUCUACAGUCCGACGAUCUGGCCAGCUUAUGGCAGGAGCAAAGUCAGUCCCCCUUUCAGAGCCUCAGGAAGCUUGGAACACCUCAGUCACAAGCCUGUCAGUUUCUUCCUCUGGGAUGGGAGUCCCGCUGGAAUUCUCGGGUGCCAA | 0.218
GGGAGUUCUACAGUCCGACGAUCUUUUUUUUUGAAAGAGUUCUCCUCAUAGGAGGAUGAUUCAGCAUCAGAAGAAGAAGGAACCCAUAGCUUGGUGUCAUUAACAUAAUUAUUUUAAGCCUUAUCCAGCAGCCUGGAAUUCUCGGGUGCCAA | 0.414
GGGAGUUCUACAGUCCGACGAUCUUCAUAUACAGGAUAGCCUAAUUUUAUUUGUUUAAAUAUGCUUAAUAUGCCCAAGAUUGCAAAUGCAUCCAGUCAGUAAUACCACUGUCUGUAUGUGGAAGACAUGUUCCUGGAAUUCUCGGGUGCCAA | 0.434
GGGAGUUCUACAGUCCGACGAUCUCUGCAGGCUGAAUGCAGUCUCCAGACUGGAAACGCAGAGCGGCUCCUCACGCCUAAUCCUGUUGACAAGUCCCCCGCCGUGUUGGAAAGACCUCUCGCCUCUACGUGGCUGGAAUUCUCGGGUGCCAA | 0.307
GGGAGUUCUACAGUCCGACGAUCCUUGAGGUGAUAGUUGUUAAAAACAAUACCAGUAUUUGAUCCAGUUUCAUCUCAACUAUGUUAUACCUGGACAUUUUAGAUGUUUAUCAAAGGUCUUUUAUGGGGAAGAAUGGAAUUCUCGGGUGCCAA | 0.3
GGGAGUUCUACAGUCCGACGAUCCCUUGCAGAGCAGGAAGUUUAGCCAGGCUCGAGUGUAUCCCCUCCAGCCCUGGCAAAGGGCUUCUGCUCACCACAGAUCUAUAGCCAGUCUGAAUAGAGGAAGAGAGAACUGGAAUUCUCGGGUGCCAA | 0.221

Sample 2
Target: CCNF, cyclin fold, Cln2 fusion (human)
Method: yeast growth competition, sequencing
Sample: yeast
Notes: strong parent motif
Relative to: not given
Reading: higher = stronger binding
Starting sequence: RB1 docking peptide (human); PKPLKKLRFDIEG
Change | normalised enrichment score
L4R | 4.2
E12V | 0.805
I11Q | 0.374
K5P | 0.14
R8L | 1.95
R8Y | 1.66
K6G | 0.295
I11E | 1.27

Sample 3
Target: Ras GTPase-activating protein-binding protein 1, C-terminal RGG region (G3BP1, Homo sapiens, UniProt Q13283)
Sequence of UniProt Q13283 (whole entry, looked up): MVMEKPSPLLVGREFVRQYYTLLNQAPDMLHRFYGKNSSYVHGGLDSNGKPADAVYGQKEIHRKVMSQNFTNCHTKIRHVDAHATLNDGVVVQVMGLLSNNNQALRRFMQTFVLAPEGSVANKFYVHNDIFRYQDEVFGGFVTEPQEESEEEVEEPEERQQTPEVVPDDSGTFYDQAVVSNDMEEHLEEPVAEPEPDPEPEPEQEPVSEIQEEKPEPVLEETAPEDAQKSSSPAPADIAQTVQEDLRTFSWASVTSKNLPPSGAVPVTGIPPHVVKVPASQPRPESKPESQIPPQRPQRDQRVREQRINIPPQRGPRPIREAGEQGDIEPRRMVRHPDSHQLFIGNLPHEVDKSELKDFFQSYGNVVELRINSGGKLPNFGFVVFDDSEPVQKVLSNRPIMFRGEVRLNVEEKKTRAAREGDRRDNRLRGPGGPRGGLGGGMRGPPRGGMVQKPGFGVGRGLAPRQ
Method: RNA Bind-n-Seq
Form: RNA
Sample: in vitro
Tested at: 1 µM
Notes: whole 134-nt RNA, ends assumed
Together with: 150 mM KCl
Relative to: input library
Reading: higher = stronger binding
Strand | log2 enrichment
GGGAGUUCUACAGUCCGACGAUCCAAGUCCUGUGCUACACAUCGUAUGUACCGAAUCGGGAAAGGGUGGGAAAAAGGGAAAGUAUUAUGUUACGCCGUUCGGAUCUGCACUUCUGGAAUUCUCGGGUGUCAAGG | 1.57
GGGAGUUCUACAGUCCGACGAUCAGUCCUGUGCUACACAUCGUAUGUACCGAAUCGGGUUUUUGGGUUUUUUUGGGAGGGAAAGUAUUAUGUUACGCCGUUCGGAUCUGCACUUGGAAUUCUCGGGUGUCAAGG | 0.192
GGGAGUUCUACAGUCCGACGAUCCACAGACAACACGCACGCACACAGACACAGAGGGAAGGGGUUGGGAUGGGGACAGGGUGCACAGCAGGGCGGGGUAGGACCCCAGCCCCUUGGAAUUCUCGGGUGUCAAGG | -0.212
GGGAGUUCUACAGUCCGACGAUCGUCCUGUGCUACACAUCGUAUGUACCGAAUCGGGGCCCCGGGGCCCCGGGCCCCGGGGAAAGUAUUAUGUUACGCCGUUCGGAUCUGCACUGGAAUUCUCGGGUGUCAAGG | -2.48
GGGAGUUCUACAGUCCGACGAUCCAAGUCCUGUGCUACACAUCGUAUGUACCGAAUCGGGGUUUGGGUUUGGGUUUGGAAAGUAUUAUGUUACGCCGUUCGGAUCUGCACUUCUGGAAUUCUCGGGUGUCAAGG | -0.896
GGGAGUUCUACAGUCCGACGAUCUUCUUGCCUAUGCUGUGCGCCACACCAUCCAGGUGUACCGGCUCUCCAAGUACAACACGGAAGAAUUCAUCACAGUCUACCCCACCGACCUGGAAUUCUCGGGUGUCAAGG | 0.263
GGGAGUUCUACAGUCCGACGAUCACCAUGCAGGUGGGCAUCUUUGGGAAGUGGGGCAAGGAAAGGAUAGGGAGGGGGGUAACACUUUGGGAACAGGUGGUCCCAGGUCGUUUCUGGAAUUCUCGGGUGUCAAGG | -0.988

Further values, each from its own experiment
Molecule | target | assay | system | conditions | how to read | quantity | value
PhoQ, residues 284 288 289 292 302 303 WVSSAF | PhoP, residues 12 14 15 18 19 LWHVM (Escherichia coli, UniProt P23836) | Sort-seq, measured: YFP reporter | E. coli | PhoQ-PhoP variant library, together with: 10 µM Mg2+ | relative to: high Mg2+ state, higher = stronger signaling | fold induction | 4.89
